Results gathered from unrelated publications.
A part holds a random share of what one study measured.

Block 1
Target: Myc proto-oncogene protein, bHLH-zipper, MAX partner unstated (MYC, Homo sapiens, UniProt P01106, residues 368-449)
Chain of UniProt P01106 (368-449, looked up): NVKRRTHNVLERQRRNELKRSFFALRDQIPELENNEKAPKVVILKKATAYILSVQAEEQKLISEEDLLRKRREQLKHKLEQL
Method: protein-binding microarray
Molecule type: double-stranded DNA, one strand shown
Sample: in vitro
Tested at: not given
Notes: k-mer, scored over probes, only values ≥0.25
Reading: higher = stronger binding
Measurement: E-score
CACGCAGC: 0.368
AGTGTGCG: 0.273
CCATGAGG: 0.465
ATACCGCG: 0.295
TGGGACCA: 0.263
CATGCTGG: 0.401
CCCGTGCG: 0.306
GCCGCACA: 0.282
CCTCGCCC: 0.292
ACAACGCA: 0.259
CGTGCACA: 0.315
AAGCACAC: 0.321
CGGCCACG: 0.397
CTCATGGA: 0.347
GACACGCA: 0.326
ACATGCAG: 0.307
CACGCTTC: 0.382

Block 2
Target: Sal-like protein 4, full length isoform B (SALL4, Homo sapiens, UniProt Q9UJQ4-2, residues 1-616)
Method: universal PBM
Molecule type: double-stranded DNA, one strand shown
Sample: in vitro
Tested at: not given
Notes: 8-mer, flanks averaged, mean of replicates
Reading: higher = stronger binding
Measurement: E-score
ATAGTAGG: 0.106
CTTACCCC: -0.271
AGATCGCC: -0.228
AGTAAAAC: 0.244
TGCCCGCA: -0.215
CAAACTCC: -0.0843
AGGCCTTG: -0.264
AATCCTTA: 0.246
ACAGGAAT: 0.206
ACCCCTGC: -0.189
CGTGTCCA: -0.181
CGGCCTCA: -0.218
ATATCAAT: 0.372
CGTAATAC: 0.179
CCAAGCCC: -0.219
GGAGTGGA: -0.00109
GAAGGCGC: -0.243
ATTTCTTC: 0.184
CTTTGAGA: 0.0742
ACGGCCAA: -0.0589
CTAACTTC: 0.066
ACAGGACT: -0.102
ATGAAACG: 0.173
CTGCAGAC: -0.116
GTTACGCA: 0.0509

Block 3
Target: RNA binding protein fox-1 homolog 2, RRM domain, GST-SBP tag (RBFOX2, Homo sapiens, UniProt O43251-10, residues 100-194)
Method: RNA Bind-n-Seq
Molecule type: RNA
Sample: in vitro
Tested at: 365 nM
Notes: natural RNA segment, single round, ends assumed
Reference: no-protein control
Reading: higher = stronger binding
Measurement: RBNS enrichment (R)
Shared flanks, not repeated: GGGAGUUCUACAGUCCGACGAUC … UGGAAUUCUCGGGUGCCAA
Target sequence (chain): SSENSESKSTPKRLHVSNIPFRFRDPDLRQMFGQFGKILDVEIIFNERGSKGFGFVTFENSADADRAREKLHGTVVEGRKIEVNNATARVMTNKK
CUUCAUGCUUCCCCCUUUCCAUAUUAUAAUCUCAUUUGAUUGCUCUGCAGUUGGGAACGGUGAUCUUCUUGAAUGAUGUUUCAGUGUGCAAAAACUAUAGAGCCUGUCAG: 0.525
GCUGGGAAGAGAAGAGGGCCCAGCCCAGAGCCACCUGGAUCUAUCCCUGCGGCCUCCACACCUGAACUUGCCUAACUAACUGGCAGGGGAGACAGGAGCCUAGCGGAGCC: 0.178
ACACACACACAGCGAUGCAUCUCUCUCUAAAGCUCAGCCACGGCUGCGGCAAGGUCCCAGCGGUCGCUGGGAGACAGAAGGUUUUGUGCCCUGCUGUAUCAUAAAGCACA: 0.398
AUUGAACACAUCUGCAAGUACAAUGUCUUGAUCCAAAACAGCAAAUAGGAAAUCAUGUUCUUCCCACCCUGCACCCCAUCUGCACCCCCACAGGGACCCAGUGCAGAAUC: 2
CGUUCUGUCACUUUGAACGAAGUCUGAGUGAGGCUAGUGACUCCUUGGGUGUCCUCAACAGUGAAUUCACUGUCUGCGUGCAGUUAUUACAUGCAUUUGUGCAUUUCUAC: 0.243
CCAGUCCUUUGGGAGCCUGUCAGGAGACAAAGCUCAGGAUGCUGCUUGUGCUAGGAACACACCCUGCCCUCACUGCCCCACCUCCUGGGGCCCCACCGCCAUCGUCAGUC: 0.303
UGGGUAUGUGUAGGUCAAAUCAAAUGACAGAUGAUUUUUUUAAUGUGAAUAAAGUUAUGUUCAGAUAGUUUGUACAGAAAAAAUAAUAAUAAAAUGGAUGCCCUUCAUGU: 0.954
AUGAGUACCAACAUUGAAAGGCAUUCCUGUGACCGUCAGACCAUAGUCUGCACACCUACUCUGCCUGUGGAAGCAGCACCUGGGCCUCCUGCCUGCUUUCCUCAAGACGA: 1.14
CUGCGCAAACAGGACGAAAUGGUUGAAGGUGUGAGCUACAUAUGCAUAUCUUUAAUCACACCUAUACCUACCAUACUGCACUGUAGCCUUUGCAUGUGAGUAUUAUGUAC: 3.94
UAUUGUAACUUGAAACACUAUAUUUUGUCUUUCCUGUGAGUAGCUCUAAGUUUGAGAGAAACCACUCCUCCAAGCUUCUCUGUUUCUUCCCAUUUCCUGUGGUCCUUUUU: 0.376
GUGCUGGAUUCAUGCUUCCAGAUGUGAGAUGUGUGUUCUAAUCUGACAGUGUGUUUUGUAAUCUGUCAAUCAGUGUUGGAGAUAUGCCCAGGCUAUUACAGGCAUAUUAU: 2.71
UUUAAUAAAAAUUGUUAUGAACUAUAGUAUUUUAGAUGAUGAGUGACUUAUUUUAAUUCCACUUUAACAUUUUACUGUGCUGUUAACUUGGAAGACCUGUUUGAAAUUAG: 0.801

Block 4
Target: Fragile X messenger ribonucleoprotein 1, C-terminal low-complexity region (Fmr1, Mus musculus, UniProt P35922)
Method: RNA Bind-n-Seq
Molecule type: RNA
Sample: in vitro
Tested at: 200 nM
Notes: whole 134-nt RNA, ends assumed
With: 150 mM KCl
Reference: input library
Reading: higher = stronger binding
Measurement: log2 enrichment
Shared flanks, not repeated: GGGAGUUCUACAGUCCGACGAUC … UGGAAUUCUCGGGUGUCAAGG
ACCAUGCAGGUGGGCAUCUUUGGGAAGUGGGGCAAGGGGGGGAUAGGGAGGGGGGUAACACUUUGGGAACAGGUGGUCCCAGGUCGUUUC: 0.664
UUCAGGAUUGUGAGGGUGAAACUCCCAUUCACAAGGCAGCUCGCUCUGGGAGCCUAGAAUGCAUCAGUGCCCUUGUGGCGAAUGGGGCUC: -1.51
AAGUCCUGUGCUACACAUCGUAUGUACCGAAUCGGUUUUGGGGUUUUGGUUUUGGGAAAGUAUUAUGUUACGCCGUUCGGAUCUGCACUU: -0.507
AAGUCCUGUGCUACACAUCGUAUGUACCGAAUCGGCCCCGGGGCCCCGGCCCCGGGAAAGUAUUAUGUUACGCCGUUCGGAUCUGCACUU: -1.1
CACAGACAACACGCACCCACACAGACACAGAGGGCAGGGGUUGGGAUGGGGACAGGGUGCACAGCAGGGCGGGGUAGGACCCCAGCCCCU: 1.31
AAGUCCUGUGCUACACAUCGUAUGUACCGAAUCGGCCCCCGGCCCCCGGCCCCCGGAAAGUAUUAUGUUACGCCGUUCGGAUCUGCACUU: -0.104
AGUCCUGUGCUACACAUCGUAUGUACCGAAUCGGGGAAAAAGGAAAAAGGAAAAAGGAAAGUAUUAUGUUACGCCGUUCGGAUCUGCACU: -0.669
GUCCUGUGCUACACAUCGUAUGUACCGAAUCGGGCCCCCGGGGCCCCCGGCCCCCGGGAAAGUAUUAUGUUACGCCGUUCGGAUCUGCAC: -0.665
CUCAAGUCCUGUGCUACACAUCGUAUGUACCGAAUCGGGCGGGGCGGGCGGGGAAAGUAUUAUGUUACGCCGUUCGGAUCUGCACUUCCA: 1.02
UGGCCCUGGUGGCAUGCGGGGAGGAAGAGGUGGCCUCAUGGAUCGUGCUGGUCCCGGUGGAAUGUUCAGAGGUGGCCGUGGUGGAGACAG: 0.206

Block 5
Target: Histone acetyltransferase KAT6A, both winged helices, GST fusion (KAT6A, Homo sapiens, UniProt Q92794, residues 1-181)
Method: protein binding microarray
Molecule type: double-stranded DNA, one strand shown
Sample: in vitro
Tested at: not given
Notes: 8-mer, flanks averaged, mean of 2 arrays, mostly near background
Reference: not given
Reading: higher = stronger binding
Measurement: E-score
Construct (chain): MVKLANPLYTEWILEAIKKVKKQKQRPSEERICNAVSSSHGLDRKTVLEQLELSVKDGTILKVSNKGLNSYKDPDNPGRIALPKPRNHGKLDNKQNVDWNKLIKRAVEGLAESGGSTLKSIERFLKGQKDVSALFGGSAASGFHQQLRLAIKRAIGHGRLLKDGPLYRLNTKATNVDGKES
AGCCAGCC: -0.275
GACGTAAA: 0.0548
ACATTACG: 0.13
GCAGTGAA: 0.0553
CTCAGTGA: -0.144
AATAGATG: -0.091
CTACAGAG: -0.082
CTCGAACA: -0.174
AGGAAATC: -0.0775
TGAACCCA: 0.0113
CGTCCCGA: 0.169
CCATAGAG: -0.0933
CCAAGCCG: 0.216
AACGCGAG: 0.117
ACACCTGC: 0.016
GGTAAAGA: 0.0482
GTGGAAAA: 0.00551
AACAGCTT: -0.0191
AGTGCTTG: -0.0188
CCAAGGAA: -0.0387

A few entries again (block 2):
CGGCCTCA: -0.218
ATATCAAT: 0.372
CGTAATAC: 0.179
CCAAGCCC: -0.219
GGAGTGGA: -0.00109
GAAGGCGC: -0.243
